{"data": "Measurements of several laboratories", "note": "Each numbered part is a random draw from the data of one study; scales do not carry over between parts. Changes are numbered by the printed parent chain."}
{"data": "Study 1", "target": "ABI1, truncated, D143A, DHFR fusion (Arabidopsis thaliana)", "method": "DHFR PCA, deep sequencing", "medium": "yeast", "setting": "methotrexate growth selection, single substitutions", "added": "(+)-ABA 0.39 µM", "relative to": "wild-type fitted maximum", "direction": "higher = stronger binding", "parent": "PYL1, truncated, DHFR fusion (Arabidopsis thaliana); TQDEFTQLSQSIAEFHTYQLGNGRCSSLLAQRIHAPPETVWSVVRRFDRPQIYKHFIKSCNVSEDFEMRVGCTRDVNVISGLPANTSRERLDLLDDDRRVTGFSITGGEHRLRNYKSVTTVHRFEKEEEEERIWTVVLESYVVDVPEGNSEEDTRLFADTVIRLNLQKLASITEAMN; partner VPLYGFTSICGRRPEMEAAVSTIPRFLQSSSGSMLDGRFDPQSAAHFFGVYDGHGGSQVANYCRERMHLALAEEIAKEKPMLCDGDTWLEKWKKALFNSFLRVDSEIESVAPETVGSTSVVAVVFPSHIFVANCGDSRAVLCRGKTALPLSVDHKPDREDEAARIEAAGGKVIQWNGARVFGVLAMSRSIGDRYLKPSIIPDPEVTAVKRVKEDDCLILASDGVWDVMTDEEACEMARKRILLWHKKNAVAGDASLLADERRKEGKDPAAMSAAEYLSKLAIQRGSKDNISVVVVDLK"}
{"Change": "R46D", "relative binding score [%]": -8.08}
{"Change": "R90T", "relative binding score [%]": 20.6}
{"Change": "R132W", "relative binding score [%]": 8.44}
{"Change": "R113K", "relative binding score [%]": 67.5}
{"Change": "W134T", "relative binding score [%]": 61.1}
{"Change": "L82Y", "relative binding score [%]": 41.7}
{"Change": "I172N", "relative binding score [%]": 6.19}
{"Change": "I162G", "relative binding score [%]": 9.4}
{"Change": "F47S", "relative binding score [%]": 7.85}
{"Change": "W134S", "relative binding score [%]": 59.6}
{"Change": "V136Y", "relative binding score [%]": 3.64}
{"Change": "L156P", "relative binding score [%]": 3.92}
{"Change": "V121F", "relative binding score [%]": -6.72}
{"Change": "I33R", "relative binding score [%]": -0.97}
{"Change": "V142C", "relative binding score [%]": 40}
{"Change": "V40A", "relative binding score [%]": -2.34}
{"data": "Study 2", "target": "CCNF, cyclin fold, Cln2 fusion (human)", "method": "yeast growth competition, sequencing", "medium": "yeast", "setting": "strong parent motif", "relative to": "not given", "direction": "higher = stronger binding", "parent": "SAMHD1 docking peptide (human); ASKSRVQLFKDDP"}
{"Change": "K3N", "normalised enrichment score": 0.986}
{"Change": "K10R", "normalised enrichment score": 0.812}
{"Change": "L8R", "normalised enrichment score": 0.0964}
{"Change": "S4Y", "normalised enrichment score": 3.24}
{"Change": "D11I", "normalised enrichment score": 0.308}
{"Change": "F9C", "normalised enrichment score": -0.209}
{"Change": "S4I", "normalised enrichment score": 5.68}
{"Change": "S4C", "normalised enrichment score": 6.47}
{"Change": "R5E", "normalised enrichment score": -0.446}
{"Change": "F9I", "normalised enrichment score": 0.179}
{"Change": "L8W", "normalised enrichment score": -0.0064}
{"Change": "L8Q", "normalised enrichment score": -0.33}
{"Change": "D12A", "normalised enrichment score": 0.891}
{"Change": "D11H", "normalised enrichment score": 0.682}
{"Change": "S2K", "normalised enrichment score": 1.06}
{"Change": "S2P", "normalised enrichment score": 1.44}
{"Change": "K3L", "normalised enrichment score": 1.31}
{"Change": "F9N", "normalised enrichment score": 0.355}
{"Change": "V6K", "normalised enrichment score": 2.64}
{"Change": "K10P", "normalised enrichment score": 2}
{"Change": "D11K", "normalised enrichment score": 0.768}
{"Change": "F9S", "normalised enrichment score": -0.14}
{"Change": "S2Y", "normalised enrichment score": 2.06}
{"Change": "K3I", "normalised enrichment score": 1.04}
{"Change": "D12G", "normalised enrichment score": 1}
{"data": "Study 3", "target": "Ras GTPase-activating protein-binding protein 1, full length (G3BP1, Homo sapiens, UniProt Q13283)", "method": "RNA Bind-n-Seq", "form": "RNA", "medium": "in vitro", "concentration": "200 nM", "setting": "whole 134-nt RNA, ends assumed", "added": "150 mM LiCl", "relative to": "input library", "direction": "higher = stronger binding", "all molecules": "7-deaza-guanosine replaces G", "all sequences stand within": "GGGAGUUCUACAGUCCGACGAUC … UGGAAUUCUCGGGUGUCAAGG", "chain of UniProt Q13283 (whole entry, looked up)": "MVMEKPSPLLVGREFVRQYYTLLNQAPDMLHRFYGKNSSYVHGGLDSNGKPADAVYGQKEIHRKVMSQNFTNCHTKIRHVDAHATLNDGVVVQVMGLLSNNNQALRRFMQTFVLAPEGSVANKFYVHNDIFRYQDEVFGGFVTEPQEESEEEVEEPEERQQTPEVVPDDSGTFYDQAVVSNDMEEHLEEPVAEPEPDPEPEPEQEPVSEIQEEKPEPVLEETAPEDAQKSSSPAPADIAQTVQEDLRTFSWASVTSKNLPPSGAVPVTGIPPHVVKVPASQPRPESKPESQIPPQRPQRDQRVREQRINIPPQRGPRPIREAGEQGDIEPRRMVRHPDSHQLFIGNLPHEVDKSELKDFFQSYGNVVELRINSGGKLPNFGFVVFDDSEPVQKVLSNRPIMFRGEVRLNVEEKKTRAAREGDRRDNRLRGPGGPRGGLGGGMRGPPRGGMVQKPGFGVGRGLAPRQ"}
{"Sequence": "CCUCAAGUCCUGUGCUACACAUCGUAUGUACCGAAUCGGAGGGGAGGGGAGGGAAAGUAUUAUGUUACGCCGUUCGGAUCUGCACUUCCA", "log2 enrichment": 0.405}
{"Sequence": "CAUAGACAACACGCACCCACACAGACACAGAGGGAAGGGGUUGGGAUGGGGACAGGGUGCACAGCAGGGCGGGGUAGGACCCCAGCCCCU", "log2 enrichment": 0.534}
{"Sequence": "AAGUCCUGUGCUACACAUCGUAUGUACCGAAUCGGGUUUGGGAAAAAAAGGGAGGGAAAGUAUUAUGUUACGCCGUUCGGAUCUGCACUU", "log2 enrichment": -0.0147}
{"Sequence": "UGAUCUCCAGGAUGACAUGCGAAGAUGCCAAAUCAUCCGAGACAUGAUUGGACCGGAAAAGACUUUGGUAAAUAUCCUCUCACACCACUA", "log2 enrichment": 1.09}
{"Sequence": "AGUCCUGUGCUACACAUCGUAUGUACCGAAUCGGGAAAGGGUUUUUGGGUUUUUGGGAAAGUAUUAUGUUACGCCGUUCGGAUCUGCACU", "log2 enrichment": -2.18}
{"Sequence": "UGGAGAAGGAACGUGAUAAAGAAGUAAGCGAUGAUGAGGCUGAAGAAAAGGAAGACAAAGAAGAAGAAAAAGAAAAAGAAGAGAAAGAGU", "log2 enrichment": 0.651}
{"Sequence": "UUAAGAAUAUUUAGAUAUUUGUAAAAGAAUUUGAAUGAUUUAUUUAAUAUAACGUUUAUUUUAUUAGCUCUAUUCCAAUUGAUUACAACC", "log2 enrichment": -2.65}
{"Sequence": "UCAAGUCCUGUGCUACACAUCGUAUGUACCGAAUCGGUUUGGUUUGGUUUUUGGAAAGUAUUAUGUUACGCCGUUCGGAUCUGCACUUCC", "log2 enrichment": -0.234}
{"Sequence": "GUCCUGUGCUACACAUCGUAUGUACCGAAUCGGGGUUUUUGGGGAAAGGGGUUUGGGGAAAGUAUUAUGUUACGCCGUUCGGAUCUGCAC", "log2 enrichment": -0.756}
{"Sequence": "UCCUGUGCUACACAUCGUAUGUACCGAAUCAAAGUGUGUGUGUAAAGUGUGUGUGUAAAAAAGUAUUAUGUUACGCCGUUCGGAUCUGCA", "log2 enrichment": -1.24}
{"Sequence": "UGGCCCUGGUGGCAUGCGGGGAGGAAGAGGUGGCCUCAUGGAUCAUGGUGGUCCCGGUGGAAUGUUCAGAGGUGGCCGUGGUGGAGACAG", "log2 enrichment": -0.0722}
{"data": "Study 4", "target": "RING finger protein unkempt homolog, zinc fingers 1-6, GST-SBP tag (UNK, Homo sapiens, UniProt Q9C0B0, residues 30-357)", "method": "RNA Bind-n-Seq", "form": "RNA", "medium": "in vitro", "concentration": "not given", "setting": "RNA with constant flanks, human and mouse sites, ends assumed", "relative to": "input RNA pool", "direction": "higher = stronger binding", "all sequences stand within": "GGGAGUUCUACAGUCCGACGAUC … CAACAGAGGAUUGAGCAUCA", "chain of UniProt Q9C0B0 (30-357, looked up)": "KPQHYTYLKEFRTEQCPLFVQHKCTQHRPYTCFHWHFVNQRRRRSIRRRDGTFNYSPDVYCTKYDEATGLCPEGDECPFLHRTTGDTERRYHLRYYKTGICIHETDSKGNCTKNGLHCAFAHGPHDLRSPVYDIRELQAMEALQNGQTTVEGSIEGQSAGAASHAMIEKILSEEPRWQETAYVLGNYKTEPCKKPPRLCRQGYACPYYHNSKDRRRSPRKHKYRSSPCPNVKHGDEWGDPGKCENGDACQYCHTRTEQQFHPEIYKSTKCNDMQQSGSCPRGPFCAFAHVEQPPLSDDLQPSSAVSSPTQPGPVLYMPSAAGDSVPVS"}
{"Sequence": "UUCUGAUAAUUCUAGAGCCUGUUACCAUAGAAAGGUAUUUCUUCAAUGGCUGGUUGUAGUUAGUUCAUGUUUUUCAAUCAAUUUGCAAAUGUAUUUGUUGCUGUAUAGUGAUUGUUUUGC", "bound/input enrichment [ratio]": 2.42}
{"Sequence": "CUGUGGGGACUUGACAGCAAUGCUCAUCUCUCAUGCUUCAAUUUUUCUUUUCUUACUGUUAAUAGGAAAAAAAUCAACAUCUGUAAAUUAAGAAUACAGCAAUUAUCUGUACAGUACUGC", "bound/input enrichment [ratio]": 0.27}
{"Sequence": "UCUUCCUUUCCUUCUGUCUGUCUGACUCCUGGGUCUGUGCGCCAUGGCAUGAGUGUUUUCUAGUAGUAGACUGGAGUAGUAGACUGUUUCUAAGAACAGAUGAUCUGGUUCCUGAUGUGU", "bound/input enrichment [ratio]": 0.626}
{"Sequence": "ACUGCCAUAGAACUUGCAGAGCUUCAGCCUCCUAUGUUUGACUUACACCCAAUGAGAGCAUUAUUUCUAAUGACAAAAAGCAAUUUUCAGCCUCCUAAACUAAAGGAUAAAAUGAAAUGG", "bound/input enrichment [ratio]": 0.234}
{"Sequence": "AGGGAAGACUUGAUCUGUGGACUUUUGAAAGCAACUUGAGGAAAAACACAUAACAGAAUCUAUAGGUGUGGACAAUAUGUGAUAUUGCUAAAUAAUGUCAAGUAGGAAAUAAAAGAGACU", "bound/input enrichment [ratio]": 2.37}
{"Sequence": "GUUGGUACUUCUGUAAAAACCUUAGUAUUAGCAUACAGCUCUGCAGUUUCCAGCAAAAUGGUUAGGCAGAUUUUAGAGCUUUGUCCUAACCUGGAGCAUCUGGAUCUUACCCAGACUGAC", "bound/input enrichment [ratio]": 26.2}
{"Sequence": "GGAAGGACUGCGCUGCAGGUUAUGAAACUUGGAAAUCCCGAGAUUGCCAGGAGACUGCUACUUAGAGGUGCUAAUCCCGAUUUGAAAGACCGAACUGGUUUCGCUGUCAUUCAUGAUGCG", "bound/input enrichment [ratio]": 0.177}
{"Sequence": "UUUAUUUAUGUCUUAUUUAUGGUUGAGGAAUUCAGAAAAGAGCCAGUGGAAAACAUGGAUGAUGUCAUCUACUAUGUGAAUGGCACUUACCGCCUGCUGGAGUUUCUUGUGGCCCUCUGU", "bound/input enrichment [ratio]": 0.476}
{"Sequence": "GAGGAGCGGAUGCUCUCGGCUGUGUCCCAGCAGGUGCAGUGCAUACAGGAAGCACUGCGUGAACAUUCCAACCCCAACUACGACAAGACCUCUGCCCCCAUUACUUGUGAGCUGCUGAAC", "bound/input enrichment [ratio]": 0.46}
{"Sequence": "AGUAUUUUUUGGCUAAUGGCUUGAGUCACGUGGAAAUGUGAAUGUUGUAUUGUUGAACACAUUUGGUUUUGUUGUUAUAAAACAAGUCAAAUUUGCCUUCUAAAAGUGAUUAGUUUUAAA", "bound/input enrichment [ratio]": 0.688}
{"Sequence": "GUGGGCAUAUAUAUAUACACGUGCAAAUAUCAGAAUUGUUAAUAAUUUGUUACACAUGGACAUUUGUUCCAAACUGACUAAAAAUCAAUAUAGAUAUUUUAUAUACAUAUAUAUAUAUAA", "bound/input enrichment [ratio]": 0.342}
{"data": "Study 5", "Substance": "PhoQ, residues 284 288 289 292 302 303 TGYLSA", "method": "Sort-seq", "refers to": "YFP reporter", "medium": "E. coli", "setting": "PhoQ-PhoP variant library", "added": "10 µM Mg2+", "relative to": "high Mg2+ state", "direction": "higher = stronger signaling"}
{"target": "PhoP, residues 12 14 15 18 19 TQCLL (Escherichia coli, UniProt P23836)", "fold induction": 3.93}
{"target": "PhoP, residues 12 14 15 18 19 VHTVL (Escherichia coli, UniProt P23836)", "fold induction": 7.55}
{"target": "PhoP, residues 12 14 15 18 19 ICWRQ (Escherichia coli, UniProt P23836)", "fold induction": 4.18}
